Measured values pooled from the literature.
A part holds a random share of what one study measured. Values joined by “and” are separate records of one study, mostly repeats; a detail may differ.
UniProt P53778, sequence (whole entry, looked up): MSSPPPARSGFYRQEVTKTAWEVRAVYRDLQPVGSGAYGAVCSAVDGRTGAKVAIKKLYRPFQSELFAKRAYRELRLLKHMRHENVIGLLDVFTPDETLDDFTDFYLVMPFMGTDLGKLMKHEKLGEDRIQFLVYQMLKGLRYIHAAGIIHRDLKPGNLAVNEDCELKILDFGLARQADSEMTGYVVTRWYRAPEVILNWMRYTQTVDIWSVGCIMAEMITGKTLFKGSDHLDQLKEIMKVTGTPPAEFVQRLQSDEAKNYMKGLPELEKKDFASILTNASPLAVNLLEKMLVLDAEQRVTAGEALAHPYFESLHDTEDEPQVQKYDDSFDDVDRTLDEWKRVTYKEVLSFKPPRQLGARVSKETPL
UniProt Q9Y243, sequence (whole entry, looked up): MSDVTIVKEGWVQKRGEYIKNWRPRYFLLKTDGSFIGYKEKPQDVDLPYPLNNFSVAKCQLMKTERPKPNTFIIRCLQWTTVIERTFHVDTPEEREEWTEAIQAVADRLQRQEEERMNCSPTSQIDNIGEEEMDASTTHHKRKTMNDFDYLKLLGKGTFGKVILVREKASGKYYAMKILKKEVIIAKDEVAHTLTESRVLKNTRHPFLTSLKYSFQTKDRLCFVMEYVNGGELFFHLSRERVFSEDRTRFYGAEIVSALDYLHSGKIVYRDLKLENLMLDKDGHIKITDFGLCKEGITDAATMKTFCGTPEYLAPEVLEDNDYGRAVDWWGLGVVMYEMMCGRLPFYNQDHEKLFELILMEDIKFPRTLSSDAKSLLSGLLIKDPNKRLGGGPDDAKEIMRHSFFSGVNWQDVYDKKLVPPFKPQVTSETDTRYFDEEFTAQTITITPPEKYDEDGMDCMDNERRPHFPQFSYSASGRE
UniProt Q15418, sequence (whole entry, looked up): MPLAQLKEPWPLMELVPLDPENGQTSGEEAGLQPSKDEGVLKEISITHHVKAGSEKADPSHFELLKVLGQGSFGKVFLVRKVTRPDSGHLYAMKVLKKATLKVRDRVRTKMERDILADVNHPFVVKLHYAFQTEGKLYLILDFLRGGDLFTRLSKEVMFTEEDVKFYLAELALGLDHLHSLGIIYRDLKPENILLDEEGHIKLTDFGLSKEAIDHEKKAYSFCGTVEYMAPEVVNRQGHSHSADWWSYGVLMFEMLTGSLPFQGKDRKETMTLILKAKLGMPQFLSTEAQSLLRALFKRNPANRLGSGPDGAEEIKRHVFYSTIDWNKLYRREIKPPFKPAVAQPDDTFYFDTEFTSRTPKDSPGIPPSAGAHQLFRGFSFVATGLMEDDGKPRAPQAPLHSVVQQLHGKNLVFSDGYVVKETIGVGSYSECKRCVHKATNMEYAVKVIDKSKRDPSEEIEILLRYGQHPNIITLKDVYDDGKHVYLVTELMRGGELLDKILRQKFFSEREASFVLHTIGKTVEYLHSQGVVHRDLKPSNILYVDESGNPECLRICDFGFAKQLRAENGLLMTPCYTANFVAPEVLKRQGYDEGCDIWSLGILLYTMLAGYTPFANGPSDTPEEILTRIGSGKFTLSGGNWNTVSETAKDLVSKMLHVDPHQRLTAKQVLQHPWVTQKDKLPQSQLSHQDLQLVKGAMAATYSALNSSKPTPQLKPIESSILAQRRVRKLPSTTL
UniProt O15264, sequence (whole entry, looked up): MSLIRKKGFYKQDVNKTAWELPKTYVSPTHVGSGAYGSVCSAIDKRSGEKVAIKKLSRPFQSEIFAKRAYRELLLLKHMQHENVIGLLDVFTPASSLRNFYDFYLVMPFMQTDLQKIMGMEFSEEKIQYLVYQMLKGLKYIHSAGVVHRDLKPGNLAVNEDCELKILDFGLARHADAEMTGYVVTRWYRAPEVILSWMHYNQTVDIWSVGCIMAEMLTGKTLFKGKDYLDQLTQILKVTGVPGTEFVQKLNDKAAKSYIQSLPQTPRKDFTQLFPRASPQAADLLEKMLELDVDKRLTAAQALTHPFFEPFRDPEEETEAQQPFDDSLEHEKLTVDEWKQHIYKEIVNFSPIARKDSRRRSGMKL
UniProt Q02779, sequence (whole entry, looked up): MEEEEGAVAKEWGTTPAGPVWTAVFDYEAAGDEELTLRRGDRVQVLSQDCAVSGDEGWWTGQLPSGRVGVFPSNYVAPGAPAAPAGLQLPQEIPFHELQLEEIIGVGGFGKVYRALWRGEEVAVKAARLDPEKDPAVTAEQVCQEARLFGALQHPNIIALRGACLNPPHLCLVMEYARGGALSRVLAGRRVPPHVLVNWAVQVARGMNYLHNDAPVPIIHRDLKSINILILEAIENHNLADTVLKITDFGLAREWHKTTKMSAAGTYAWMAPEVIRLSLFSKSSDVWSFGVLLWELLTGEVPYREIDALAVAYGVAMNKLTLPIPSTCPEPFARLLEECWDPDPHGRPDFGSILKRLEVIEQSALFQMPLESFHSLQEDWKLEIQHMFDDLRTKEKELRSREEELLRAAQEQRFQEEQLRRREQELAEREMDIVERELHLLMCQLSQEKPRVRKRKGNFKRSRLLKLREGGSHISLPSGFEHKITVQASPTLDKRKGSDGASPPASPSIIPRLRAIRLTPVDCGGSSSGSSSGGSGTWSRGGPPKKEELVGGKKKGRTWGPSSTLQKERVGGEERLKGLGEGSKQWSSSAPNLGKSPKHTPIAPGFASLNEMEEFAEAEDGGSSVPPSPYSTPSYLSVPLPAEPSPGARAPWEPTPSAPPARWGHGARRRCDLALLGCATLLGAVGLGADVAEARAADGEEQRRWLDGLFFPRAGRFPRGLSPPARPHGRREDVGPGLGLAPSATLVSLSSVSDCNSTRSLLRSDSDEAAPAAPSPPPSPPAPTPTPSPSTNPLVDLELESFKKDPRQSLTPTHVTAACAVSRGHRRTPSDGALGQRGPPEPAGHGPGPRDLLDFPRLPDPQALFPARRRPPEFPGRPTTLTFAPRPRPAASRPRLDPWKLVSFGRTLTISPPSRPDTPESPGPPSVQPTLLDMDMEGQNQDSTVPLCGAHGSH
UniProt P42336, sequence (whole entry, unmodified, looked up): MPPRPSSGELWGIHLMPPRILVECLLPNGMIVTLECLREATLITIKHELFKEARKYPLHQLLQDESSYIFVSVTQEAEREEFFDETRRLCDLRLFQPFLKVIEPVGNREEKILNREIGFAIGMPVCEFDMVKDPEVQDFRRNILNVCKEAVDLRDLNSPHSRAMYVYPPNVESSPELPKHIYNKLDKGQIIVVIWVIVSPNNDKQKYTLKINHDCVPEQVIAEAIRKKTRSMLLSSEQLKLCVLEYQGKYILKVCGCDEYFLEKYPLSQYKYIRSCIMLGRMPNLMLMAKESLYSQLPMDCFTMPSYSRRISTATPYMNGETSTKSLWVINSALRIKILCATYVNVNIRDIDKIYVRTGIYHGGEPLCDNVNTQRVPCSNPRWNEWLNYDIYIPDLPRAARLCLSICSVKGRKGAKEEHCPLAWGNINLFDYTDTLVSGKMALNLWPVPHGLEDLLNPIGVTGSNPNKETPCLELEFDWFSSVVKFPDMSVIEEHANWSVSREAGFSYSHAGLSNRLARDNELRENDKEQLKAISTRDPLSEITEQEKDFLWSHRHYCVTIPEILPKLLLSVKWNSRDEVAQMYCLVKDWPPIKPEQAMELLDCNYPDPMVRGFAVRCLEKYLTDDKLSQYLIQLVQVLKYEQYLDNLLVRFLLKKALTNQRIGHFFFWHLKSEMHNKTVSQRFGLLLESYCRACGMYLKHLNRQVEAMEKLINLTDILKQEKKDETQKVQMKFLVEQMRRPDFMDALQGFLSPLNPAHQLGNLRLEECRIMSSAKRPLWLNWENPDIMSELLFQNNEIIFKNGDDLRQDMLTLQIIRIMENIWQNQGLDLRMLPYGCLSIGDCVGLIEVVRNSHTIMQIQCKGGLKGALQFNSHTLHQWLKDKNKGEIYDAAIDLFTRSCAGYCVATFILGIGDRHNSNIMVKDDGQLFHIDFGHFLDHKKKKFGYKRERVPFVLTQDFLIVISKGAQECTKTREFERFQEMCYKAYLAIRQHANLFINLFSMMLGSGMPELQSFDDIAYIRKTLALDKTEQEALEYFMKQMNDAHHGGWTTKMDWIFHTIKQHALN
UniProt O15530, sequence (whole entry, looked up): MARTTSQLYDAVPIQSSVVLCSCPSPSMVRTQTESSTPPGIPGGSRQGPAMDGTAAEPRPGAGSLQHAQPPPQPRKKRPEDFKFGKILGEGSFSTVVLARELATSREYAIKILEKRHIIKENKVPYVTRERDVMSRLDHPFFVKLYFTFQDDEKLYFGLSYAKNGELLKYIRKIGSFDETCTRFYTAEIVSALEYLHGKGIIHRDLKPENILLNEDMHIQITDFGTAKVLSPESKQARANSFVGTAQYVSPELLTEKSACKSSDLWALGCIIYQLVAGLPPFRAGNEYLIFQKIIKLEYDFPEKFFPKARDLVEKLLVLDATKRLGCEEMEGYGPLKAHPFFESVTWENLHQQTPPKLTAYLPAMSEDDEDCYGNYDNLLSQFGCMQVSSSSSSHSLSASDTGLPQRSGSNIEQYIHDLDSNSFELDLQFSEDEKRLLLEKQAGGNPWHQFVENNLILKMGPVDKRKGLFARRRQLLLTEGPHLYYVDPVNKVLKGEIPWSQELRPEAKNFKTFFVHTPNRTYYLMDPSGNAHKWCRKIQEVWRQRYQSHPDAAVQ

Set 1
Observed: AlphaScreen signal
Technique: AlphaScreen counter screen
Medium: His6 peptide without bromodomain
Concentration: 50 µM
Setting: assay interference check
Measurement: inhibition
CS(=O)(=O)O.Cn1cc(C2=C(c3cn(CCCSC(=N)N)c4ccccc34)C(=O)NC2=O)c2ccccc21: 96.8%
CC(=O)O.Cn1cc(C2=C(c3cn(CCCN)c4ccccc34)C(=O)NC2=O)c2ccccc21: 93.7%
O=C1Cc2c([nH]c3ccc(Br)cc23)-c2ccccc2N1: 10.3%
COC(=O)c1ccc2c(c1)NC(=O)/C2=C(\Nc1ccc(N(C)C(=O)CN2CCN(C)CC2)cc1)c1ccccc1: 27.1%
CN(C)S(=O)(=O)c1ccc2c(c1)/C(=C/c1cc3c([nH]1)CCCC3)C(=O)N2: 60.1%
c1ccc(-c2n[nH]c3c2oc2ccccc23)cc1: 11.8%
Br.CC(=O)c1cccc(Nc2nc(-c3c(C)nc4ccccn34)cs2)c1: 9.3%
Cc1ccc(-n2nc(C(C)(C)C)cc2NC(=O)Nc2ccc(OCCN3CCOCC3)c3ccccc23)cc1: 42.4%
CC(=O)NNC(=O)c1c(O)c2ccccc2[nH]c1=O: 23.4%
CCOC(=O)CNC(=O)CSc1ccc2nnc(-c3cccc(F)c3)n2n1: -1.8%
CC(=O)c1c(C)c2cnc(Nc3ccc(N4CCNCC4)cn3)nc2n(C2CCCC2)c1=O: 39.2%
O=c1cc(N2CCOCC2)oc2c(-c3ccccc3)cccc12: 12.7%
CN1CCN(c2ccc3nc(-c4c(N)c5c(F)cccc5[nH]c4=O)[nH]c3c2)CC1: 66.6%
O=c1sn(-c2cccc3ccccc23)c(=O)n1Cc1ccccc1: -15.2%
Cc1c(NC(=O)OC[C@@H]2COCCN2)cn2ncnc(Nc3ccc4c(cnn4Cc4cccc(F)c4)c3)c12: 72.6%
CC(C)OC(=O)c1ccc(NC(=O)Nc2ccc(Cl)c(Cl)c2)cc1: -7.5%

Set 2
Target: Eukaryotic initiation factor 4A-III (Homo sapiens, UniProt P38919)
UniProt P38919, sequence (whole entry, looked up): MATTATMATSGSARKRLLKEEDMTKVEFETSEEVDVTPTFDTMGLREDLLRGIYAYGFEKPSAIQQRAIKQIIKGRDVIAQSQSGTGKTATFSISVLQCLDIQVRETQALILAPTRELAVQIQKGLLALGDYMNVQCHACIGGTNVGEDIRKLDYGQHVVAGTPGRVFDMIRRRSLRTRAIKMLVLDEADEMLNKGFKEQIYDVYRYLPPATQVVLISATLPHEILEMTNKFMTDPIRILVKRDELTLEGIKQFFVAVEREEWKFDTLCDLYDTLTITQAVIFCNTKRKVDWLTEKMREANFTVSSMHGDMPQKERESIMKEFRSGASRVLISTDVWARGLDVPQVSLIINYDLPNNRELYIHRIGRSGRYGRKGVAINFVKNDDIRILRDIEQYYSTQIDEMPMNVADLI
Observed: RNA clamping
Technique: fluorescence polarization
Concentration: concentration not given
Setting: mean of two replicates
With: FAM-labelled poly r(AG)8 RNA
Measurement: fluorescence polarization change
COC(=O)[C@H]1[C@@H](O)[C@@]2(O)c3c(OC)cc(OC)cc3N(C)[C@@]2(c2ccc(Br)cc2)[C@@H]1c1ccccc1: 8.4 mP
COc1ccc([C@@]23Oc4cc(OC)cc(OC)c4[C@]2(O)[C@H](O)[C@H](C(=O)NOCc2ccccc2)[C@H]3c2ccccc2)cc1: 5.2 mP
COc1ccc([C@@]23Oc4cc(OC)cc(OC)c4[C@]2(O)c2nc(-c4cccc(OC)c4)[nH]c(=O)c2[C@H]3c2ccccc2)cc1: 27.6 mP and 9.3 mP
COc1ccc([C@@]23Oc4cc(OC)cc(OC)c4[C@]2(O)c2nc(-c4ccccc4)nc(OC)c2[C@H]3c2ccccc2)cc1: 5.8 mP
COc1ccc([C@]23Oc4cc(OC)cc(OC)c4[C@@]2(O)c2nc(-c4ccc(C)cc4)[nH]c(=O)c2[C@@H]3c2ccccc2)cc1: 21.8 mP
COC(=O)[C@@H]1[C@@H](c2ccccc2)[C@]2(c3ccc(OC)cc3)Oc3cc(OC)cc(OC)c3[C@@]23NC(C2CCN(C(=O)OC(C)(C)C)CC2)=N[C@@]13O: 15.1 mP
O=C1O[C@H]2[C@@H]1[C@H](c1ccccc1)[C@@]1(c3ccccc3)Oc3ccccc3[C@@]21O: 1.9 mP
C#CCCC(=O)O[C@@H]1[C@H](C(=O)c2ccco2)[C@@H](c2ccccc2)[C@]2(c3ccc(OC)cc3)Oc3cc(OC)cc(OC)c3[C@]12O: 6.2 mP
COC(=O)[C@H]1C(=O)[C@@]2(NC(C)C)c3c(OC)cc(OC)cc3O[C@@]2(c2ccc(OC)cc2)[C@@H]1c1ccccc1: 0.6 mP
COc1ccc([C@]23Oc4cc(OC)cc(OC)c4[C@](O)([C@H](C(=O)NCCCC(OC)OC)[C@H]2c2ccccc2)[C@H]3O)cc1: 3.5 mP
COc1ccc([C@@]23Oc4cc(OC)cc(OC)c4[C@]2(O)[C@@H](O)[C@H](C(=O)c2ccco2)[C@H]3c2ccccc2)cc1: 18.5 mP

Set 3
Structure (SMILES): COc1ccc2c(O[C@@H]3C[C@H]4C(=O)N[C@]5(C(=O)O)CC5/C=C\CCCCC[C@H](NC(=O)OC5CCCC5)C(=O)N4C3)cc(-c3csc(NC(=O)C(C)C)n3)nc2c1C (stereo partly drawn)
Concentration: 1 µM
Measurement: remaining binding
GRK7 (Homo sapiens, UniProt Q8WTQ7); cell-free assay, competition with immobilised ligand: 87%
PAK3 (Homo sapiens, UniProt O75914); cell-free assay, competition with immobilised ligand: 100%
PHKG1 (Homo sapiens, UniProt Q16816); cell-free assay, competition with immobilised ligand: 96%
TAOK2 (Homo sapiens, UniProt Q9UL54); cell-free assay, competition with immobilised ligand: 98%
MAP2K3 (Homo sapiens, UniProt P46734); cell-free assay, competition with immobilised ligand: 82%
MAPK12 (Homo sapiens, UniProt P53778); cell-free assay, competition with immobilised ligand: 91%
ERBB2 (Homo sapiens, UniProt P04626); cell-free assay, competition with immobilised ligand: 97%
GRK3 (Homo sapiens, UniProt P35626); cell-free assay, competition with immobilised ligand: 99%
Ribosomal protein S6 kinase alpha-5, N-terminal kinase domain (RPS6KA5, Homo sapiens, UniProt O75582); cell-free assay, competition with immobilised ligand: 100%
PRKAA2 (Homo sapiens, UniProt P54646); cell-free assay, competition with immobilised ligand: 87%
ABL1 (Homo sapiens, UniProt P00519, F317I); KINOMEscan; F317I mutant, nonphosphorylated; reference: control: 90%
MAP4K4 (Homo sapiens, UniProt O95819); cell-free assay, competition with immobilised ligand: 100%
Ribosomal protein S6 kinase alpha-1, N-terminal kinase domain (RPS6KA1, Homo sapiens, UniProt Q15418); cell-free assay, competition with immobilised ligand: 74%
PIM2 (Homo sapiens, UniProt Q9P1W9); cell-free assay, competition with immobilised ligand: 100%
TSSK3 (Homo sapiens, UniProt Q96PN8); cell-free assay, competition with immobilised ligand: 80%
AKT3 (Homo sapiens, UniProt Q9Y243); cell-free assay, competition with immobilised ligand: 93%
MAPK13 (Homo sapiens, UniProt O15264); cell-free assay, competition with immobilised ligand: 100%
PRKD1 (Homo sapiens, UniProt Q15139); cell-free assay, competition with immobilised ligand: 89%
Ribosomal protein S6 kinase alpha-1, C-terminal kinase domain (RPS6KA1, Homo sapiens, UniProt Q15418); cell-free assay, competition with immobilised ligand: 100%
MAPK15 (Homo sapiens, UniProt Q8TD08); cell-free assay, competition with immobilised ligand: 100%
PIK3CA (Homo sapiens, UniProt P42336, C420R); cell-free assay, competition with immobilised ligand: 100%
CDK3 (Homo sapiens, UniProt Q00526); cell-free assay, competition with immobilised ligand: 100%
PDPK1 (Homo sapiens, UniProt O15530); cell-free assay, competition with immobilised ligand: 99%
MAP3K10 (Homo sapiens, UniProt Q02779); cell-free assay, competition with immobilised ligand: 93%
PAK6 (Homo sapiens, UniProt Q9NQU5); cell-free assay, competition with immobilised ligand: 100%

Set 4
Structure (SMILES): O=c1c(-c2ccc(F)cc2)c(-c2ccncc2)[nH]n1-c1ccc(Cl)cc1
Observed: enzyme activity
Mode: inhibitor
Concentration: 0.5 µM
Reference: control
Measurement: remaining activity
MAPK13 (Homo sapiens, UniProt O15264): 102%
PRKG1 (Homo sapiens, UniProt Q13976): 95.6%
IRAK4 (Homo sapiens, UniProt Q9NWZ3): 81.9%
NEK4 (Homo sapiens, UniProt P51957): 93.9%
MAPK12 (Homo sapiens, UniProt P53778): 85.2%
Cyclin-dependent kinase 9, with cyclin T1 (CDK9, Homo sapiens, UniProt P50750): 101%
MAP4K2 (Homo sapiens, UniProt Q12851): 87.7%
BTK (Homo sapiens, UniProt Q06187): 83.6%
LRRK2 (Homo sapiens, UniProt Q5S007): 102%
CSNK2A1 (Homo sapiens, UniProt P68400): 95.3%
STK38 (Homo sapiens, UniProt Q15208): 93.7%
MAP3K10 (Homo sapiens, UniProt Q02779): 88.1%
CSNK1A1 (Homo sapiens, UniProt P48729): 63.7%
LYN (Homo sapiens, UniProt P07948): 97.5%
MAP2K6 (Homo sapiens, UniProt P52564): 79.4%
PRKCI (Homo sapiens, UniProt P41743): 96.2%
KIT (Homo sapiens, UniProt P10721): 94.9%
MKNK2 (Homo sapiens, UniProt Q9HBH9): 97.2%
AKT3 (Homo sapiens, UniProt Q9Y243): 94.3%
CHEK1 (Homo sapiens, UniProt O14757): 101%
WNK2 (Homo sapiens, UniProt Q9Y3S1): 112%
EPHA5 (Homo sapiens, UniProt P54756): 106%
PLK2 (Homo sapiens, UniProt Q9NYY3): 92.5%

A few entries again (set 3):
MAPK15 (Homo sapiens, UniProt Q8TD08); cell-free assay, competition with immobilised ligand: 100%
MAPK13 (Homo sapiens, UniProt O15264); cell-free assay, competition with immobilised ligand: 100%
Ribosomal protein S6 kinase alpha-5, N-terminal kinase domain (RPS6KA5, Homo sapiens, UniProt O75582); cell-free assay, competition with immobilised ligand: 100%
PRKAA2 (Homo sapiens, UniProt P54646); cell-free assay, competition with immobilised ligand: 87%
PHKG1 (Homo sapiens, UniProt Q16816); cell-free assay, competition with immobilised ligand: 96%
CDK3 (Homo sapiens, UniProt Q00526); cell-free assay, competition with immobilised ligand: 100%
Ribosomal protein S6 kinase alpha-1, C-terminal kinase domain (RPS6KA1, Homo sapiens, UniProt Q15418); cell-free assay, competition with immobilised ligand: 100%
Ribosomal protein S6 kinase alpha-1, N-terminal kinase domain (RPS6KA1, Homo sapiens, UniProt Q15418); cell-free assay, competition with immobilised ligand: 74%
GRK3 (Homo sapiens, UniProt P35626); cell-free assay, competition with immobilised ligand: 99%
PAK3 (Homo sapiens, UniProt O75914); cell-free assay, competition with immobilised ligand: 100%
PAK6 (Homo sapiens, UniProt Q9NQU5); cell-free assay, competition with immobilised ligand: 100%
TAOK2 (Homo sapiens, UniProt Q9UL54); cell-free assay, competition with immobilised ligand: 98%
